# Assay results of several laboratories.
# Parts stem from different laboratories: compare values within a part only.

# Set 1
# Target: RING finger protein unkempt homolog, zinc fingers 1-6, GST-SBP tag (UNK, Homo sapiens, UniProt Q9C0B0, residues 30-357)
# Method: RNA Bind-n-Seq
# Form: RNA
# Sample: in vitro
# Concentration: not given
# Setting: RNA with constant flanks, human-mouse chimeric sites, ends assumed
# Relative to: input RNA pool
# Reading: higher = stronger binding
# Constant ends, left off below: GGGAGUUCUACAGUCCGACGAUC … CAACAGAGGAUUGAGCAUCA
# Construct (chain): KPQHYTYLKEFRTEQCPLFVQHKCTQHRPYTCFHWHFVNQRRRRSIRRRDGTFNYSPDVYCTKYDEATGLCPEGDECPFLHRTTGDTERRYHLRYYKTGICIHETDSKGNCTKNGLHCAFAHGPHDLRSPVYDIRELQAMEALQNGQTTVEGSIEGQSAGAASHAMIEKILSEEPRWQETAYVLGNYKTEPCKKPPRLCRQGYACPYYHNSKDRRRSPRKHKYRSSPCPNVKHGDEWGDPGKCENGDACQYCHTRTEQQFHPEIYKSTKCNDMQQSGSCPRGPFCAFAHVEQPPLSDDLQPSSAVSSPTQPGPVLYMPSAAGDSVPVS
Strand,bound/input enrichment [ratio]
GCGAACAGGACUACAGAAAUGCUGGUAGUGCUCCGGCCUUGCUGAUGACUUCUGAUGUCCCAGCAAAUGUUGGCAUUGUUGACUGCUGAGAAGAUACUUCUGAGGACCCACGUCUAAGGU,0.0584
AGGAGGAGAUUAAAGGGUGAGAGUGGGGUGGAAGACUGUGUCAUGGCCCUAGAAACCCUGUUCAGUGUCCUGCUUUCUCUGUGCAGACUGAUGGCCCCUUACACGCCCUUUCUGACUGAG,0.0388
CAGGGCAUCAUCUCUCGUGCUGUUAGACACCUUUUUAAGAGUAUUGAUGAGAAAAAGACCUCAGCGAUUAAAAAUGGGCUGCCCCCUCCUGAAUUCAAAGUGAAUGCCCAGUUCCUAGAG,0.354
GGAAGUACAAUGAUGGAGAUUGAUGGUGACAAAGGCAAGCAGGGCGGUCCCACCUACUACAUAGACACUAAUGCUCUCCGCGUGCCCAGGGAGAACAUGGAGGCCAUCUCACCACUCAAG,0.628
UGUGAACUGUCUCUUGAUUGGGGUCUACAAGAUGACUUUUCCUGGCACAUAUUCCAAAGCAUAGACUUUGUUGCCUGCUGCUUAUUGUCUAAUUUACAGGGAUAUUUAAUUUUGUCAGGU,0.387
UAUCCAACUUUCUUGCCACAUUUUGAAUUCCAAGACAUUAUUCCUCCAGAUGACUUCCUAACUAGUGAUGAAGAGCAAGAUUUGGUUUUAUUUGGAACUAUGAGAGGACAAGUUGUUGGA,0.277
AUGGAGAAGGAUUCUCUGCCCCGCUUUGUGCGCUCUGAAUUUUAUAAGGAGCUAAUCAAGUAGUAAUCUGGUCAGGCUUCCAAAAGUUGCCCUGUGAGUUGAGUUACAUAAUAACCCGCA,0.188
AUGGAACAUUUUGAUGCGUCACUCAGUACCUAUUUCAAGGCCUUCCUGGGCCCCCGAGAUACAAGAGUAAAAGGAUGGUUCCUCCUGGACAAUUACAUCCCUACGUUUGUCUGUUCUGUU,0.126
CAGCCUCAGAGCCCAGACUUCCUGGAUAUUACCAACCCUAAAGCGGUAUUAGAAAAUGCACUUAGGAACUUCGCCUGUCUGACCACCGGAGAUGUGAUUGCUAUCAACUACAAUGAGAAG,0.681
CACAGAGGAGAUCUGCUGUUCCUCACGAAUUUCCGGGAGGACCCCAUCAGAGCUGGUGAAAUAGUUGUUUUUAAGGUUGAAGGACGAGACAUUCCAAUAGUUCACAGAGUAAUCAAGGUU,2.62
ACCUCCCCCUCCCGCCUCACCCCACCCCCGCUUUUUGAAAGUGUGUUGGCGUUUCUUUUCCUUCCCCAUACAAAGUGAUUACAGUUUCCCCCGCAAGGGUCUAUCGAAGGGCUUGACGGA,1.32

# Set 2
# Target: Histone acetyltransferase KAT6A, winged helix 2, GST fusion (KAT6A, Homo sapiens, UniProt Q92794, residues 85-181)
# Method: protein binding microarray
# Form: double-stranded DNA, one strand shown
# Sample: in vitro
# Concentration: not given
# Setting: 8-mer, flanks averaged, mean of 2 arrays, mostly near background
# Relative to: not given
# Reading: higher = stronger binding
# Residues (chain): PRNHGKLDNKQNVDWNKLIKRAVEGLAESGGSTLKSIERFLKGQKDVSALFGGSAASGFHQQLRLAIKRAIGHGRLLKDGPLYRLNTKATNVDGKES
Strand,E-score
AGTGACTC,-0.0816
GGAATGCA,0.00671
ACCAGTGG,-0.108
CCGGACAC,0.0401
TCATGGGA,-0.0905
ACTAAACG,-0.127
GATTACTA,-0.0982
AAGCTCTG,-0.0203
CCTCGTAG,-0.0554
CTGTCCGC,0.0307
AAGCGGTC,0.111
AAGCTCCG,0.134
ACAACTGG,-0.0516
GTGCACAC,-0.18
CGCCGCGC,0.206
CCGGAACG,-0.0788
AGCACTGG,-0.0645
CCCGACGC,0.136
ATCGCGCA,0.0267
CCGGGCAC,0.111
AGGGTCTC,-0.122
CATATCAC,-0.0965
GTGGTCGA,-0.112
ATTTCTAC,0.017
ATATTGGC,-0.123

# Set 3
# Target: Sal-like protein 4, full length isoform B (SALL4, Homo sapiens, UniProt Q9UJQ4-2, residues 1-616)
# Method: universal PBM
# Form: double-stranded DNA, one strand shown
# Sample: in vitro
# Concentration: not given
# Setting: 8-mer, flanks averaged, mean of replicates
# Reading: higher = stronger binding
# Target sequence (chain): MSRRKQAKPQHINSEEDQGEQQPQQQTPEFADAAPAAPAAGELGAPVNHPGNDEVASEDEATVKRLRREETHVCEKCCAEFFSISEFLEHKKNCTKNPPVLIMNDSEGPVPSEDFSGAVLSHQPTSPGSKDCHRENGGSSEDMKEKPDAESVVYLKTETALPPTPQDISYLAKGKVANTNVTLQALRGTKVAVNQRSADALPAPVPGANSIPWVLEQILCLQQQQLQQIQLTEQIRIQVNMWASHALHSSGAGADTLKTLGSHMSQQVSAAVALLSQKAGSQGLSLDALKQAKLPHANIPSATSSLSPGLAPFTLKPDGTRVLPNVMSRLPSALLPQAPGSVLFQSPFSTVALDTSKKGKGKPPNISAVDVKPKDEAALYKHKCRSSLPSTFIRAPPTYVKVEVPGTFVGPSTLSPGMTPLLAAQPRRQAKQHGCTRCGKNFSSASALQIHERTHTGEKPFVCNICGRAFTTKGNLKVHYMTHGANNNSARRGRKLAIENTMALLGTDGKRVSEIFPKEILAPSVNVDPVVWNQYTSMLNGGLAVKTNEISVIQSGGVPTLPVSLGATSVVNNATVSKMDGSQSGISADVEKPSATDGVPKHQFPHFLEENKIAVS
Strand,E-score
CAGGTACG,-0.204
AAGAGTGA,0.119
CGACCCAC,-0.209
AAGGTTCT,-0.0169
CATCAAGG,-0.066
TCCACAAA,0.149
AGCCTCGC,-0.192
GAACGATC,-0.169
CAATCGGG,-0.233
GAACTACA,-0.0954
AAAAAAGT,0.191
AAAATCTA,0.303
CGAGACTC,-0.175
ACTATGAC,0.162
ACATCACA,0.143
ATCCGCCA,-0.0533

# Set 4
# Target: RNA binding protein fox-1 homolog 2, RRM domain, GST-SBP tag (RBFOX2, Homo sapiens, UniProt O43251-10, residues 100-194)
# Method: RNA Bind-n-Seq
# Form: RNA
# Sample: in vitro
# Concentration: 365 nM
# Setting: natural RNA segment, single round, ends assumed
# Relative to: no-protein control
# Reading: higher = stronger binding
# Constant ends, left off below: GGGAGUUCUACAGUCCGACGAUC … UGGAAUUCUCGGGUGCCAA
# Target sequence (chain): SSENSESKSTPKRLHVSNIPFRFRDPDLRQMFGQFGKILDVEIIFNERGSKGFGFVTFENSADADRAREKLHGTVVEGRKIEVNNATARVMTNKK
Strand,RBNS enrichment (R)
CUCCAGGGCCUUUGCAAGCCCAUCGCCCUCCUCACUGGAGACACCCAGACCUGCCUUCCUCCACCAAGAGAUCCUUAUUAAACACAGCCCCCAAAGCACAGAAUGGAUUC,0.845
UUGGGUCUCCUGGGAUUCUAGGAGUGACAGACCAGGCUGUGGCCUCUGCACCCCACCCCUCACCCUUGUGCAGGGACAACUCCUUGCCCUGUGUUUCUUGGCCUCUAGAC,0.371
UUGCUUUUGGGGAGAGUGGGGAGAAGACAUUCUAAUAAUCAGUUUGUGAAAUAGCUUCUGUUGGAAACCUUUUGAGGGGAAUAAGGAAUGGUCAUCUAAAAUGAGAGAUU,0.885
CUGUUUUGACGGCACAUGUGCCAGUCAAGGGACAUGGGACAGUCGCGCCACUUUGCAUUCCCACGGGACUCAUGUACCUCCCGCAGAGCCGUCCCCGUCAAGGUGUGGGG,0.203
GCCGAGCCGCCGCAGACGGAGCCCCGCUGCUGACUGGACCCUCUCUGGCCCUGUGGUUCGGUUCUCACAGUUCCAGUGAGACUGGGCAGCGUGUUUGCCUGUCCUGAGGU,0.437
UAUUUCUUCUGACAUGGAGUGAACAUCAAUAGGAAUACUUUCAAAGAAAAUGAAAACACAGAAGCAAAGAGAAAUGUGGCACUUCACAUUUUAAACUACAGAUGGACUUG,0.518
CUGCUUACAACACUGGGAGAUGUGUUUGCCAGUAAGUUGCUCAUCACAAGAGCACCAGACUUGGGGGUGUAAUCUCCGGCAACUUGCAUGCCCUCUGAAAGAAGGGUUUU,1.4
CAAACAUAGUAUAUCCUUUAGUACUUUAACAUAUUUUUGUUAAAAUACUUUUAAUGGUAAGAAAUGAACUUGAGGUCCCAGGAGGUUUUGUUGCCUUUUCAUUGAUUAGA,0.299
GUUCUUUCACAUUUGCCCCAGCAAAACCCCAUCUAACACAACUGACUUUCCAAAGAACCCUUAAGUUUCCAUUUCCCAGUGGCAAUAACUGUGACCUGAUCCCUACCCCA,0.577
CCUCCCCCUUGCCUUUAACCUCUAGUUUAGUCUUUUCCUCCAGGCAUGAAAAAUAUGACUAACCUGUGGUGUGUCCAUUCUUCCUUAUAGGAAUUUCCUGAGUUUGCAGG,2.91
CAGGUCAUCAAGCCGAGAGGGCGUCAAAGAGGAAGCCUGGGCUGGGAUCCUUAGGCUCAGCUGUCUGUCUAAUCCCAGAGCUAAGCCCUUUCUGCUUCGGGCAGCCUGGA,0.335
CACUGUCACAGUCUACCACAGCCUCCCUGUCCAAGAAGUGCUGUUGAGAGGCGAGGAGGUAGUGGGUGAGGCUACCUGACUCACUUCAAAUGCAUGUUUUGAGAUGUUUG,27

# Set 5
# Target: Centromere-binding protein 1, full length, His-tagged (CBF1, Saccharomyces cerevisiae, UniProt P17106, residues 1-351)
# UniProt P17106, sequence (whole entry, looked up): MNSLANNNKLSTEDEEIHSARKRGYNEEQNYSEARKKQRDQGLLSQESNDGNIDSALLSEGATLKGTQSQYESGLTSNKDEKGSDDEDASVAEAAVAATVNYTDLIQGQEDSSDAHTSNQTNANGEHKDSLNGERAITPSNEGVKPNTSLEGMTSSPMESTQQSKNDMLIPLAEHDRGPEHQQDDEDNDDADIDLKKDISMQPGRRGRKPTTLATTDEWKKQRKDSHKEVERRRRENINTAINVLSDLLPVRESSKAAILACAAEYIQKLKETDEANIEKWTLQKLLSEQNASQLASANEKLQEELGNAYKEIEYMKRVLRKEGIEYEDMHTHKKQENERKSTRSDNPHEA
# Method: competition protein-binding microarray
# Form: double-stranded DNA, one strand shown
# Sample: in vitro
# Concentration: 2 µM
# Setting: whole 60-bp probe, lowest competitor level
# Together with: Pho4 competitor, 0.05 µM
# Reading: higher = stronger binding
# Constant ends, left off below: … GTCTTGATTCGCTTGACGCTGCTG
Strand,fluorescence intensity
AAAGCGGTAATTTTTCACGTGATGTCAAATATCTAT,5610 a.u.
TTGGGTGATGTTTTGCATGTGTGCTGCCCAAGTTGA,92.5 a.u.
GTAGTCCTGAGCCAACGCATGCCGGTTTTGTTGGTG,74.2 a.u.
CTTTGCTCCATACAGCATGTGGAGCAGGCGTACTTG,66.4 a.u.
AAAGCGGTAATTTGTCACCCTACTTCACATATCTAT,74.6 a.u.
TGGATTTCAACGGGAAACGTGACTCGTACAGAATTT,949 a.u.
GCCCACTTTTTTTCAAATGTGTGAGACACCCATACC,88.7 a.u.
CTTCTGTAAATTTGTCACTCGACTTGACGCGCCCCG,74.5 a.u.
CGGGGTTAAGTTTGTCACGAGACTTGCTTGCAGCAG,970 a.u.
TGATTGAAAACCAACAATGTGACAGTGAAAACAACA,154 a.u.
CCGATTTTGTCCTTTAGCGTGACTCGGATTATACGC,239 a.u.
AGCTTGTTTATCTTGCACATGGCAAGGCCATCGCGG,136 a.u.
GTCTTGTCTCATTGCCTCGTGGGTGTCCCCACTTCA,92.1 a.u.
GGGAATGTAGCGGAGCATGTGATGGAAGAGCTTCGG,413 a.u.
GAACCAAGACCGTCAAGCGTGCTTTTAAGGCTTTGA,81.4 a.u.
ACTTTTATCGGTTCATGTGTGACGGCTCAGCTCGTC,77.4 a.u.
GGGCTCACTTTTAGACGCGTGTTCCATCGGCGTTCG,70.1 a.u.
TTCTGCGCAGAGAAAGGCGTGCAAAGTCCGTTTGAC,66.7 a.u.
CAGTCACCGTTTGGTAGATAACGACCTAAATCACCC,75.1 a.u.
CGTCCTAGTGATTTTCACGTGGCTTCCATGAGGAAG,783 a.u.
AAGGAAACTATAAAGCACGCAATTCCCTATTTGGTT,84.3 a.u.
TGCGCAACAACTTGGCATGTGGGTGTATGTCTAGAA,82.5 a.u.
TGCGCAACAACTTGGAGTGTGGGTGTATGTCTAGAA,71.3 a.u.
GTCTTGTCTCATTGATAGGTGGGTGTCCCCACTTCA,90 a.u.
CGGGGTTAAGTTTGGAGCGTGGGTGGCTTGCAGCAG,84.8 a.u.

# A few entries again (set 5):
Strand,fluorescence intensity
CGGGGTTAAGTTTGTCACGAGACTTGCTTGCAGCAG,970 a.u.
AAGGAAACTATAAAGCACGCAATTCCCTATTTGGTT,84.3 a.u.
TGCGCAACAACTTGGCATGTGGGTGTATGTCTAGAA,82.5 a.u.
CTTCTGTAAATTTGTCACTCGACTTGACGCGCCCCG,74.5 a.u.
AAAGCGGTAATTTTTCACGTGATGTCAAATATCTAT,5610 a.u.
TGCGCAACAACTTGGAGTGTGGGTGTATGTCTAGAA,71.3 a.u.
